Assay results pooled from the literature.
A part holds a random share of what one study measured. Changes are numbered by the printed parent chain.

Study 1
Target: Fragile X messenger ribonucleoprotein 1, C-terminal low-complexity region (Fmr1, Mus musculus, UniProt P35922)
Method: RNA Bind-n-Seq
Molecule type: RNA
Matrix: in vitro
Concentration: 200 nM
Notes: whole 134-nt RNA, ends assumed
With: 150 mM LiCl
Baseline: input library
Reading: higher = stronger binding
Library: 7-deaza-guanosine replaces G
Oligonucleotide | log2 enrichment
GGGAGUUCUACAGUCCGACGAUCAGUCCUGUGCUACACAUCGUAUGUACCGAAUCGGGUUUGGGAAAAAGGGUUUUUGGGAAAGUAUUAUGUUACGCCGUUCGGAUCUGCACUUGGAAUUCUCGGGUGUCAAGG | -2.73
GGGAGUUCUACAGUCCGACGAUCUCCUGUGCUACACAUCGUAUGUACCGAAUCGGGAAAAAAGGAAAAAAGGGGAAAAAAGGAAAGUAUUAUGUUACGCCGUUCGGAUCUGCAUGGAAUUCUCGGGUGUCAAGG | -0.723
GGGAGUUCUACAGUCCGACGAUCAAGUCCUGUGCUACACAUCGUAUGUACCGAAUCGGAAAGGAAAAAAAGGUUUUUGGAAAGUAUUAUGUUACGCCGUUCGGAUCUGCACUUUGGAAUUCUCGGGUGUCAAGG | -2.3
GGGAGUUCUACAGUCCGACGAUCAGUCCUGUGCUACACAUCGUAUGUACCGAAUCGGGUUUGGGAAAAAGGGAAAAAGGGAAAGUAUUAUGUUACGCCGUUCGGAUCUGCACUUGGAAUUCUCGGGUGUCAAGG | -1.37
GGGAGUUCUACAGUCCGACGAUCUGGGAGGUUGAUUUUGUUUAUUUUUUUAGCUCAUUUCCAGGGGUGGGAAUUUUUUUUUAAUAUGUGUCAUGAAUAAAGUUGUUUUUGAAAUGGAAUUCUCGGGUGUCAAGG | 0.352
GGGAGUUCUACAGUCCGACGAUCGCAGGAAGUAAAAACAAAUGGAAAUGCUUCGGAUAGUGGCAGGGGUGGGGGUAAAUAAGGAAAGGGUGGGAUGGGAGUGGGUAAAGAGUUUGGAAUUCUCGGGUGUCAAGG | 1.75

Study 2
Target: Phosphate system positive regulatory protein PHO4, full length, GST-tagged (PHO4, Saccharomyces cerevisiae, UniProt P07270, residues 1-312)
Method: competition protein-binding microarray
Molecule type: double-stranded DNA, one strand shown
Matrix: in vitro
Concentration: 2 µM
Notes: whole 60-bp probe, lowest competitor level
With: Cbf1 competitor, 0.05 µM
Reading: higher = stronger binding
Target sequence (chain): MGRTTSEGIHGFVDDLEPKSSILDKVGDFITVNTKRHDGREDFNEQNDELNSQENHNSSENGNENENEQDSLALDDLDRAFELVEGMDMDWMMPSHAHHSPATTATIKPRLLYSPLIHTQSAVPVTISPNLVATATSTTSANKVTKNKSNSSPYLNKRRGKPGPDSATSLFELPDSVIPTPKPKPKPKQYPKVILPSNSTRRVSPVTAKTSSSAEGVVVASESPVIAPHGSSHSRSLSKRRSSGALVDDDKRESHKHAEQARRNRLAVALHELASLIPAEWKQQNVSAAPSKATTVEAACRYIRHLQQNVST
Oligonucleotide | fluorescence intensity [a.u.]
AAATTACTAAGTTTTCACGTGGGTTACCCCGTATGAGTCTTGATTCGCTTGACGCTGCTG | 15600
CATACCCAACCTTTTCACGTGGATTAAGATATTTGTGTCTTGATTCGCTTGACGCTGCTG | 14700
GGGTCCACTCTTATACGCGTGGGTATTTTTTCCTTTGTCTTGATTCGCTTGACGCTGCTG | 10700
AAATTACTAAGTTGCGGGGTGGGTGACGCCGTATGAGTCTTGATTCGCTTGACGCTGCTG | 3800
AACATATTGTGTTGACATGTGTAGGCAAAGACAAAAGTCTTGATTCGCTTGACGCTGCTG | 9350

Study 3
Target: CCNE2, cyclin fold, Cln2 fusion (human)
Method: yeast growth competition, sequencing
Matrix: yeast
Notes: strong parent motif
Baseline: not given
Reading: higher = stronger binding
Parent: E2F1 docking peptide (human); PPVKRRLDLETDH; partner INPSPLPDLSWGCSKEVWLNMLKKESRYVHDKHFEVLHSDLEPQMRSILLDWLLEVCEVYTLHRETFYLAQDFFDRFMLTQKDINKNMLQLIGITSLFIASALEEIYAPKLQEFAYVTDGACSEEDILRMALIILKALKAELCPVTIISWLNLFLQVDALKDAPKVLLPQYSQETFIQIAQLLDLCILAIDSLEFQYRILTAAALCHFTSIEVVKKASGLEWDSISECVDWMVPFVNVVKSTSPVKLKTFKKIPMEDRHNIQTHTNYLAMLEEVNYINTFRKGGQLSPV
Change | normalised enrichment score
PPVKRREDLETDH [L7E] | -0.37
PPVGRRLDLETDH [K4G] | -0.0652
YPVKRRLDLETDH [P1Y] | 2.19

Further values, each from its own experiment
Molecule | target | test | test system | conditions | how to read | quantity | result
PhoQ, residues 284 288 289 292 302 303 AGGCYF | PhoP, residues 12 14 15 18 19 NIMAP (Escherichia coli, UniProt P23836) | Sort-seq, refers to: YFP reporter | E. coli | PhoQ-PhoP variant library, with: 10 µM Mg2+ | baseline: high Mg2+ state, higher = stronger signaling | fold induction | 2.91
